Measurements of several laboratories.
Each numbered part is a random draw from the data of one study; scales do not carry over between parts.

Study 1 — read-out: enzyme activity; action: inhibitor; concentration: 20 µM
Target: Replicase polyprotein 1ab, polymerase (rep, Severe acute respiratory syndrome coronavirus 2, UniProt P0DTD1)
The inhibition of CCC[C@H](N[C@@H](C)C(=O)N1[C@H](C(=O)O)C[C@@H]2CCCC[C@@H]21)C(=O)OCC is reported as -4.66%.
With N[C@@H](Cc1ccc(O)cc1)C(=O)NCC(=O)NCC(=O)O the inhibition was -9.22%.
With O=C(NOCCO)c1ccc2cncn2c1Nc1ccc(I)cc1F the inhibition was 5.05%.
With C[C@@H]1Cc2c([nH]c3ccccc23)[C@@H](c2c(F)cc(/C=C/C(=O)O)cc2F)N1CC(C)(C)F the inhibition was -2.78%.
NS(=O)(=O)c1ccc(S(=O)(=O)Nc2cccc3c(Cl)c[nH]c23)cc1 has an inhibition of 1.91%.
O=C(O)c1cc2cccc([N+](=O)[O-])c2[nH]1 has an inhibition of 0.24%.
C[C@]12CC[C@@H]3c4ccc(O)cc4CC[C@H]3[C@@H]1C[C@@H](O)[C@@H]2O gave an inhibition of -2.89%.
The inhibition of C1N2CN3CN1CN(C2)C3 is reported as 1.55%.
For C=CCN1CCCC1CNC(=O)c1cc2nn[nH]c2cc1OC (stereo not shown), the inhibition was -0.17%.
Oc1nc(O)c2nc(O)[nH]c2n1 has an inhibition of 12%.
The inhibition of Cc1ccc2c(=O)c3ccccc3n(CCCN)c2c1C is reported as -30.5%.
With Cc1ccc(NC2=CC(=O)c3sc(C)nc3C2=O)cc1 the inhibition was 1.78%.
For COc1cccc(-c2cc(=O)c3ccccc3o2)c1N, the inhibition was -7.4%.
COc1c2occc2cc2ccc(=O)oc12 has an inhibition of 1.51%.
C=C1/C(=C\C=C2/CCC[C@]3(C)[C@@H]([C@H](C)OCCC(C)(C)O)CC[C@@H]23)C[C@@H](O)C[C@@H]1O gave an inhibition of -5.08%.

Study 2 — method: protein binding microarray; molecule type: double-stranded DNA, one strand shown; medium: in vitro; concentration: not given; relative to: not given; direction: higher = stronger binding
Target: Histone acetyltransferase KAT6A, both winged helices, GST fusion (KAT6A, Homo sapiens, UniProt Q92794, residues 1-181)
Notes: 8-mer, flanks averaged, mean of 2 arrays, mostly near background
Construct (chain): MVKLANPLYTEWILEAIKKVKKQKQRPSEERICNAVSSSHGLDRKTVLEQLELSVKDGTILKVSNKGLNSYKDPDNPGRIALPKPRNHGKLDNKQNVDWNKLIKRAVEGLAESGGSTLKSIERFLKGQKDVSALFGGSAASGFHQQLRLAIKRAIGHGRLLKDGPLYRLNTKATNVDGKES
The E-score of `ATCGGGCA` is reported as 0.0313.
For `CACCGTGC`, the E-score was 0.0663.
For `CTACAAGC`, the E-score was -0.0773.
`CCCTACTC` has an E-score of -0.136.
With `CGATAACC` the E-score was 0.08.
For `AGGGAGAA`, the E-score was -0.242.
For `CTCTTAGC`, the E-score was -0.0418.
The E-score of `CCGCGATC` is reported as 0.26.

Study 3 — method: protein-binding microarray; molecule type: double-stranded DNA, one strand shown; medium: in vitro; concentration: 940 nM top; notes: 60-bp whole probe; together with: salmon DNA 0.4 mg/ml; relative to: random background probes; direction: higher = stronger binding; shared flanks, not repeated: GCCTAGCAC … GTCTTGATTCGCTTGACGCTGCTG
Target: Interferon regulatory factor 5, full length, phosphomimetic (IRF5, Homo sapiens, UniProt Q13568-2, residues 1-514, S451D/S453D/S456D/S462D)
Under “fitted relative affinity”, `GACGGCCTGGGTTTCGGGACGTGCTAG` is recorded as 2.99 z-score.
Under “fitted relative affinity”, `GTCGGTATCGGACTGGGGACGTGCTAG` is recorded as 4.21 z-score.
`TTAAGACTGGACACTGGGTTAGTGCTA` — result for “fitted relative affinity”: -0.173 z-score.
`TCACATTTTTCCCTCTGACTGTGCTAG`: “fitted relative affinity” 1.45 z-score.
`TCATTTTTTTTTCTGATACTGTGCTAG` — result for “fitted relative affinity”: 1.49 z-score.
For `TTAGAACTGAGTCTCTATTAGTGCTAG`, “fitted relative affinity” read 0.0483 z-score.
For `CCAGACTGCAGAGCAAGATCGTGCTAG`, “fitted relative affinity” read -0.35 z-score.
For `TTAGATTTCGGGTATCGATTGGTGCTA`, “fitted relative affinity” read 3.59 z-score.

Study 4 — cell line: HEK-293T; read-out: pseudovirus infection; method: FDA-approved drug library screen; organism: VSV pseudotyped with SARS-CoV-2 spike; concentration: 10 µM; time: 16 h; relative to: vehicle-treated
For O=C(O)c1cc(/N=N/c2ccc(S(=O)(=O)Nc3ccccn3)cc2)ccc1O, the GFP-positive cells was 96.1%.
CC(C)(C#N)c1cc(Cn2cncn2)cc(C(C)(C)C#N)c1 gave a GFP-positive cells of 106%.
The GFP-positive cells of N[C@@H](Cc1ccc(O)c(O)c1)C(=O)O is reported as 86.1%.

Study 5 — read-out: enzyme activity; action: inhibitor; concentration: 10 µM
Target: Replicase polyprotein 1ab, 3C-like proteinase (rep, Middle East respiratory syndrome-related coronavirus, UniProt K9N7C7)
O=C(/C=C/c1ccc(O)c(O)c1)O[C@H](Cc1ccc(O)c(O)c1)C(=O)O gave an inhibition of 19%.
Cc1c(-c2cnccn2)ssc1=S has an inhibition of 10%.
O=c1[nH]nc(Sc2ncc([N+](=O)[O-])s2)n1-c1ccc2c(c1)OCCO2 gave an inhibition of 84%.

For quick reference, copied from above (study 1):
For COc1cccc(-c2cc(=O)c3ccccc3o2)c1N, the inhibition was -7.4%.
C[C@]12CC[C@@H]3c4ccc(O)cc4CC[C@H]3[C@@H]1C[C@@H](O)[C@@H]2O gave an inhibition of -2.89%.
Oc1nc(O)c2nc(O)[nH]c2n1 has an inhibition of 12%.
